Measured values of several laboratories.
A part holds a random share of what one study measured. Positions count from the first letter of the parent shown.

Set 1
Target: CCNB1, cyclin fold, Cln2 fusion (human)
Technique: yeast growth competition, sequencing
Sample: yeast
Notes: strong parent motif
Relative to: not given
Reading: higher = stronger binding
Starting sequence: viral docking peptide; KGVKRKLFAEDSS
Substitution	normalised enrichment score
KGMKRKLFAEDSS [V3M]	-0.373
KGVKRKLFAADSS [E10A]	1.21
KGVKRKLFARDSS [E10R]	0.776
KGVERKLFAEDSS [K4E]	1.95
KGVKRPLFAEDSS [K6P]	0.396
KGVKCKLFAEDSS [R5C]	1.7

Set 2
Target: UBE2A UBC core domain (UniProt P49459)
Chain of UniProt P49459 (whole entry, looked up): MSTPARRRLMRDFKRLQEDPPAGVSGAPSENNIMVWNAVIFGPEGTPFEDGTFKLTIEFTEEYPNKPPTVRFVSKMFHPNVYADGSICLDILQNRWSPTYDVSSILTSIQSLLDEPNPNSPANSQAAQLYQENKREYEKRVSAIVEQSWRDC
Technique: yeast two-hybrid
Sample: yeast
Notes: mostly zero background
Relative to: not given
Reading: higher = stronger interaction
B1: RBCK1 RING domain (UniProt Q9BYM8); chain SLVLNTEPAECPVCYSVLAPGEAVVLRECLHTFCRECLQGTIRNSQEAEVSCPFIDNTYSCSGKLLEREIK
B2: RNF121 RING domain (UniProt Q9H920); chain MPTKHLSDSVCAVCGQQIFVDVSEEGIIENTYRLSCNHVFHEFCIRGWCIVGKKQTCPYCKEKVDLKRMFS
B3: ZMIZ2 RING domain (UniProt Q8NF64); chain GTIPGTPGPNGEDGVEQTAIKVSLKCPITFRRIQLPARGHDCRHIQCFDLESYLQLNCERGTWRCPVCNKTALLEGLEVDQYMLGILIYIQNSDYEEITIDPTCSWK
B4: MAP3K1 RING domain (UniProt Q13233); chain NSIKDEEEQMCPICLLGMLDEESLTVCEDGCRNKLHHHCMSIWAEECRRNREPLICPLCRSKWRSHDFYS
B5: SYTL4 RING domain (UniProt Q96C24); chain RGSQHYSDRTCARCQESLGRLSPKTNTCRGCNHLVCRDCRIQESNGTWRCKVCAKEIELKKAT
Sequence	lacZ reporter activity
GSDDEEIPFKCFICRQSFQNPVVTKCRHYFCESCALQHFRTTPRCYVCDQQTNGVFNPA (RNF113A RING domain (UniProt O15541))	0
YQNEVDDDLVCHICLQPLLQPLDTPCGHTFCYKCLRNFLQEKDFCPLDRKRLHFKLCKK (LNX2 RING domain (UniProt Q8N448))	0
B1 (RBCK1 RING domain)	0
B2 (RNF121 RING domain)	0
PEDRESLKSACVVCLSSFKSCVFLECGHVCSCTECYRALPEPKKCPICRQAITRVIPLY (MUL1 RING domain (UniProt Q969V5))	0
B3 (ZMIZ2 RING domain)	0
B4 (MAP3K1 RING domain)	0
B5 (SYTL4 RING domain)	0

Set 3
Target: HLA class I histocompatibility antigen, A alpha chain, allele A*80:01 (Homo sapiens, UniProt P04439)
Observed: peptide-MHC binding
Molecule type: peptide
Concentration: concentration not given
Sequence	binding
DEGFHAATV	inactive
WMFRIRIIL	inactive
SSLRYGNVL	inactive
SMNYPNSYK	inactive
YMLMGFQLK	inactive
MMWIPGWFG	inactive
THADAHTQL	inactive
AMPKTIYEL	inactive

Set 4
Target: PABPC1L2, full length, GST fusion (mouse, UniProt A0ABA7IW68)
Technique: RNAcompete
Molecule type: RNA
Sample: in vitro
Concentration: 20 nM
Notes: 7-mer, probes averaged, single round
Relative to: mean of 7-mers
Reading: higher = stronger binding
Construct (chain): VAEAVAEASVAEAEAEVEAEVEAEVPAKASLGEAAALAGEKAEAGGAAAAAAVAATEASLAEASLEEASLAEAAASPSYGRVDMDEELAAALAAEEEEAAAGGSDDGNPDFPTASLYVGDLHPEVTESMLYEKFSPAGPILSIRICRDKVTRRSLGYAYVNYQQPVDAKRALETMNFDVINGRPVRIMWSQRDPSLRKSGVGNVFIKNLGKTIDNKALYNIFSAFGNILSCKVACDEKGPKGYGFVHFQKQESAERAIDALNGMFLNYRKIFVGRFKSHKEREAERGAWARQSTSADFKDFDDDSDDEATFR
Oligonucleotide	7-mer Z-score
UAUAAGA	0.0932
CUCUGUC	-0.42
CCUUACU	-0.342
GCUCGUC	-0.496
CAUGUAU	-0.2
CUAAGCC	-0.121
AUCAAGA	0.229
CACCGCA	-0.224

Some of these lines once more (set 4):
Oligonucleotide	7-mer Z-score
CUCUGUC	-0.42
CCUUACU	-0.342
